Results pooled from the literature.
Protocols differ between the studies behind these lines. ± marks the error that the study gave.
gyrB: DNA gyrase subunit B (gyrB, Escherichia coli, UniProt P0AES6)
uidA: Beta-glucuronidase (uidA, Escherichia coli, UniProt P05804)
Sequence of UniProt P05804 (whole entry, looked up): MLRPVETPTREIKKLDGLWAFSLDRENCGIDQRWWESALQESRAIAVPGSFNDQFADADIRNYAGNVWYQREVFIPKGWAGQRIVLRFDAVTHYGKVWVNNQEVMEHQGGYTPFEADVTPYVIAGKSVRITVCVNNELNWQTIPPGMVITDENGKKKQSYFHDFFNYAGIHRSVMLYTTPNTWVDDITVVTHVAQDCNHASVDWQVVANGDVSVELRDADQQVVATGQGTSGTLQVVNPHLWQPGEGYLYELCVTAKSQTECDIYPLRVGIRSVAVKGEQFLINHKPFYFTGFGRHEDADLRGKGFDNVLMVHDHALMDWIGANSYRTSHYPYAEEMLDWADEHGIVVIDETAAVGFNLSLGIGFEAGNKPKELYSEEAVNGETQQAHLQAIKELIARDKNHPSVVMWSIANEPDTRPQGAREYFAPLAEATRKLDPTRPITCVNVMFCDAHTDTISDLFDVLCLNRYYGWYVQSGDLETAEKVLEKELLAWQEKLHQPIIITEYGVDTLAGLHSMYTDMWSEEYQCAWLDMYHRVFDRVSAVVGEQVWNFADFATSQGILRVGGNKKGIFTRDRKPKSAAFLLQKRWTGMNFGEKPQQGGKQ
Sequence of UniProt O43148 (whole entry, looked up): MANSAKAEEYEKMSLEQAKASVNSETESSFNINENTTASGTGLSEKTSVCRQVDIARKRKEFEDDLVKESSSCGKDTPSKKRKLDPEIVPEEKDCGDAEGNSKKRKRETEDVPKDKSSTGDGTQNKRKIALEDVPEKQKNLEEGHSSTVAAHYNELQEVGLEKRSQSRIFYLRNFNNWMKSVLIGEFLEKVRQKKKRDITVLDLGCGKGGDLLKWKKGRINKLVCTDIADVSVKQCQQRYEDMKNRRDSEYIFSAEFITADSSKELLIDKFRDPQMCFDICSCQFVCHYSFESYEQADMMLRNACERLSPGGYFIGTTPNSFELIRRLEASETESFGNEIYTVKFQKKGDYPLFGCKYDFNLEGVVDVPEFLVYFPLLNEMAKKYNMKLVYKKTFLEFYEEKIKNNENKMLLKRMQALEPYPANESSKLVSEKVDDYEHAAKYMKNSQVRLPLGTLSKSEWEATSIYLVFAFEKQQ
Sequence of UniProt P40763 (whole entry, looked up): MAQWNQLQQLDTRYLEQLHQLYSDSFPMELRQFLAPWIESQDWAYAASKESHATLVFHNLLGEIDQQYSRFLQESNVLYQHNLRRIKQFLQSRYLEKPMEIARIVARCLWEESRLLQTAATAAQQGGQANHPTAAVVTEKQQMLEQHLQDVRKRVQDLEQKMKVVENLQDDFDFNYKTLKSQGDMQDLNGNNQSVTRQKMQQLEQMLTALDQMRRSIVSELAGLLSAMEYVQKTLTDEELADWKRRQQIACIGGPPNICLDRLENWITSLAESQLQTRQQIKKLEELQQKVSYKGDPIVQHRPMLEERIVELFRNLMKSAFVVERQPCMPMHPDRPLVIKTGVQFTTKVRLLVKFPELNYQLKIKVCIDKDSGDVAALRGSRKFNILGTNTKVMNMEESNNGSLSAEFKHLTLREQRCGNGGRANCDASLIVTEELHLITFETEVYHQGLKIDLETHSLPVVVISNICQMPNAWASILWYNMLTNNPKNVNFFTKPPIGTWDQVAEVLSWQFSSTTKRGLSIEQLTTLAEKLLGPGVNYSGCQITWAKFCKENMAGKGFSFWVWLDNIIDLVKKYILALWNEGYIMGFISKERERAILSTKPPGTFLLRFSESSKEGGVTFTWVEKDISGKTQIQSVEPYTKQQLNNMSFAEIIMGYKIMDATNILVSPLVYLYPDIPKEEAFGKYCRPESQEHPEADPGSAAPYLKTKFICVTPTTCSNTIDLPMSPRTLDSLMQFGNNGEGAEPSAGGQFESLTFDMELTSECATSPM
Sequence of UniProt Q9L4P2 (whole entry, looked up): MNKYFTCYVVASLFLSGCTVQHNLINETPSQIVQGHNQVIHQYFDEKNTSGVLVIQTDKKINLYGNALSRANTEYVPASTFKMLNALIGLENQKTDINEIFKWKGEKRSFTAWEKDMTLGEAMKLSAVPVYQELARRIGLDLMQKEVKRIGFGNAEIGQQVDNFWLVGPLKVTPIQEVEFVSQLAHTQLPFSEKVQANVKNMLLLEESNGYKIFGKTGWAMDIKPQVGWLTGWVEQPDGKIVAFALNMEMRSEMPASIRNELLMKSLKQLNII
Sequence of UniProt Q99808 (whole entry, looked up): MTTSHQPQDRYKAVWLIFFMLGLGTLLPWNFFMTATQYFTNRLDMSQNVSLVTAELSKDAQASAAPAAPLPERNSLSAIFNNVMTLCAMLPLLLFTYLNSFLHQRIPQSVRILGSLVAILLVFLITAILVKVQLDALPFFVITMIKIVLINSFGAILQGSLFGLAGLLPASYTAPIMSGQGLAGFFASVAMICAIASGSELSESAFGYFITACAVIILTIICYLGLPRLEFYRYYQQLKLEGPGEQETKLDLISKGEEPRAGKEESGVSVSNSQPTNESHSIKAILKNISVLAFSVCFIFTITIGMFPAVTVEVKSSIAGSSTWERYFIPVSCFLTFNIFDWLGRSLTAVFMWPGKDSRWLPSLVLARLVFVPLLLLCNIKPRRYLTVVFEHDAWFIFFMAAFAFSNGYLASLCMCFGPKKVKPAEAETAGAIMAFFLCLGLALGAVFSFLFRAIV
Sequence of UniProt Q99828 (whole entry, looked up): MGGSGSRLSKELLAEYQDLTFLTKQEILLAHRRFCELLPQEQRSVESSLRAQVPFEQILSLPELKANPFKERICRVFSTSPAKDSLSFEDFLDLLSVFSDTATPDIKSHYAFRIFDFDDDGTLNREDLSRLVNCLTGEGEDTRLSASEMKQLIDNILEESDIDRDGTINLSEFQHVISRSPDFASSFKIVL
Sequence of UniProt O00187 (whole entry, looked up): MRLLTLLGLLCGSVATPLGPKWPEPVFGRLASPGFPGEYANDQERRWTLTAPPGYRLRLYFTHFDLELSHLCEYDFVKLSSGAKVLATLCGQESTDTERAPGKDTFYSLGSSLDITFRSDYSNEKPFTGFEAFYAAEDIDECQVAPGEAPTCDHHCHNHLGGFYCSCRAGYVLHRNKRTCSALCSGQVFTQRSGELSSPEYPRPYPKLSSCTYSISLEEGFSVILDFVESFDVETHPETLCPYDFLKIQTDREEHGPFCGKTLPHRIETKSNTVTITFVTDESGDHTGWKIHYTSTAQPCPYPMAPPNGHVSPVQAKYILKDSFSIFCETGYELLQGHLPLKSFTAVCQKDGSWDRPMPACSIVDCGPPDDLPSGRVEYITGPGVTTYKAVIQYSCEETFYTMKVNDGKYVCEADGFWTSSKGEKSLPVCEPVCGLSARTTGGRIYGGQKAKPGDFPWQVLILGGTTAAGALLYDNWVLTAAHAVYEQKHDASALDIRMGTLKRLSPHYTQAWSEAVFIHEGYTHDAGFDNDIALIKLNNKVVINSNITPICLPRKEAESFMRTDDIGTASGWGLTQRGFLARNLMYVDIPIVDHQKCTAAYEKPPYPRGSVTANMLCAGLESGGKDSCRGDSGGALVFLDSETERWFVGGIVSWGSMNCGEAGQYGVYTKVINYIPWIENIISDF
Sequence of UniProt P08684 (whole entry, looked up): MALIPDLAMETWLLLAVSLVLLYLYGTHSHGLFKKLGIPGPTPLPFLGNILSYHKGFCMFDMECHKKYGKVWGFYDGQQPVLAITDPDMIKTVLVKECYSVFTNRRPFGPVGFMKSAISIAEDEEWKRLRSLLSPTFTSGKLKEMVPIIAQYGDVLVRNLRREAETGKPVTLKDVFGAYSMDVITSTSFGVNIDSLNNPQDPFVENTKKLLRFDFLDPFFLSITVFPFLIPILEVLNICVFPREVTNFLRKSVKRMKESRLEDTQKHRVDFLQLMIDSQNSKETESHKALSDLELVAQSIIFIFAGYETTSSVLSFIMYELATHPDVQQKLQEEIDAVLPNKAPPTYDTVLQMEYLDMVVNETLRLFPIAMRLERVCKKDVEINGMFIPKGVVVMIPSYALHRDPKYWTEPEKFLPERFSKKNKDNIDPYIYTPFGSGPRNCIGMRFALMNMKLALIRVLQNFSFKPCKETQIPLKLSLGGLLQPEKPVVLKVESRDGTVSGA
Sequence of UniProt P97612 (whole entry, looked up): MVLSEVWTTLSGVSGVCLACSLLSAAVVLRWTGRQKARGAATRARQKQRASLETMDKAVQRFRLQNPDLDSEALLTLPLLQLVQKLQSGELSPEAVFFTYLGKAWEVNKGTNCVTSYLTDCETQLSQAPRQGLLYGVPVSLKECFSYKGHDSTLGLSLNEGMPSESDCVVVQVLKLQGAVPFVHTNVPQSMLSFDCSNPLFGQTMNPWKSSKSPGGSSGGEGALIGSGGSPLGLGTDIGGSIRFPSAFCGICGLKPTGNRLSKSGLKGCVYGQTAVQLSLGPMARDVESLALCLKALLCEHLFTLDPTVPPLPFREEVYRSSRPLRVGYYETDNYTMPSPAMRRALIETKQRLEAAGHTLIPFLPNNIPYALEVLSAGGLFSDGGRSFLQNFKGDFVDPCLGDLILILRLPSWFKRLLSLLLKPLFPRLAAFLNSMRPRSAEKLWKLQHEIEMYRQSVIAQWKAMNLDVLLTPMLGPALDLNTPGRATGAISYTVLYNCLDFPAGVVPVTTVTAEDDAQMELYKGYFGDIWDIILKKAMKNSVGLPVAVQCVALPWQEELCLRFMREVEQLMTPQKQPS
Sequence of UniProt O95147 (whole entry, looked up): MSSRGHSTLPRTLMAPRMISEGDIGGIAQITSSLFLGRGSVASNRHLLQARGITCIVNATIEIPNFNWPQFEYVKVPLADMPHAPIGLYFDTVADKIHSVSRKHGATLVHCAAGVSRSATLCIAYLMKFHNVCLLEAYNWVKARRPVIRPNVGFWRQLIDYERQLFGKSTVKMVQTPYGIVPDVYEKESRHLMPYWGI
Sequence of UniProt P62942 (whole entry, looked up): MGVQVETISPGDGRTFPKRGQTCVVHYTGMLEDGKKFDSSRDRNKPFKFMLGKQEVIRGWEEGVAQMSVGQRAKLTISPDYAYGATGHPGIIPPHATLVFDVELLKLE

CC(C)C[C@H](NC(=O)[C@H](CO)NC(=O)[C@H](Cc1ccc(O)cc1)NC(=O)CNC(=O)[C@H](CCCNC(=N)N)NC(=O)[C@H](Cc1ccc(O)cc1)NC(=O)[C@H](CC(N)=O)NC(=O)[C@H](CC(=O)O)NC(=O)[C@@H](N)CC(C)C)C(=O)NCC(=O)N[C@@H](CC(N)=O)C(N)=O
IC50 (MHC class II I-A g7 (Mus musculus, UniProt P04228+Q31135); peptide binding, competitor, competition ELISA; at least 24 h, pH 7.0, room temperature, added: biotinylated HEL 10-23 200 nM): > 50 µM

CC(C)C[C@H](NC(=O)[C@H](CC(C)C)NC(=O)[C@H](CCCNC(=N)N)NC(=O)[C@@H](N)CS)C(=O)O
IC50 (PPO3 (Agaricus bisporus, UniProt C7FF04); enzyme activity, inhibitor): 144 µM

CC[C@H](C)[C@H](NC(=O)[C@@H]1CSCC(=O)NCCCC[C@H](NC(=O)[C@H](Cc2ccc(O)cc2)NC(=O)CNC(C)=O)C(=O)N[C@@H](CO)C(=O)N[C@@H](CCCNC(=N)N)C(=O)N[C@@H](CO)C(=O)N[C@@H](Cc2ccc(O)cc2)C(=O)N2CCC[C@H]2C(=O)N2CCC[C@H]2C(=O)N[C@@H](C(C)C)C(=O)N1)C(=O)N1CCC[C@H]1C(=O)N[C@@H](CC(=O)O)C(N)=O
IC50 (Mannan-binding lectin serine protease 2 (Homo sapiens, UniProt O00187); C3 deposition, inhibitor, ELISA; 100-fold diluted human serum; 30 min preincubation): 18.5 µM

Nc1cc(Oc2ccc(-c3ccccc3)cc2)nn1S(=O)(=O)c1ccc(Oc2ccccc2)cc1
IC50 (Genome polyprotein, NS2B-NS3 protease (dengue virus type 2, UniProt P29990); enzyme activity, inhibitor; 30 min preincubation, added: 20 µM Bz-nKRR-AMC): 2.9 ± 0.5 µM

O=C(CCCCCCC(=O)Nc1cccc(N=Nc2ccccc2)c1)NO
IC50 (Histone deacetylase 2 (HDAC2, Homo sapiens, UniProt Q92769); enzyme activity, inhibitor; trans isomer): 0.012 ± 0.002 µM

CC(=O)OCc1cc(-c2nc3ccccc3n(-c3ccc([N+](=O)[O-])cc3[N+](=O)[O-])c2=O)nn1-c1ccccc1
IC50 (gyrB; enzyme activity, inhibitor): 0.16 ± 7 µM

CC(C)C[C@H](NC(=O)OCc1ccccc1)C(=O)N[C@@H](C[C@@H]1CCNC1=O)C(O)S(=O)(=O)O (some centres unmarked)
IC50 (Genome polyprotein, 3C protease (Human enterovirus 71, UniProt B9VUU3); protease activity, inhibitor, FRET; Enterovirus A71; no DTT): 0.06 ± 0.02 µM

C/C(=C\C(=O)N[C@@H](CC(C)C)C(=O)N1C[C@@H](F)C[C@H]1C(=O)N[C@H](C)CCC(N)=O)c1ccc(OP(=O)(O)O)cc1
IC50 (Signal transducer and activator of transcription 3 (STAT3, Homo sapiens, UniProt P40763); phosphopeptide binding, inhibitor, fluorescence polarization): 0.246 ± 0.062 µM

C[C@]1(COC(=O)c2ccc(O)c(O)c2)[C@H](C(=O)O)N2C(=O)/C(=C/c3ccccn3)[C@H]2S1(=O)=O
IC50 (Beta-lactamase OXA-23 (OXA-23, Acinetobacter baumannii, UniProt Q9L4P2); inhibitor; added: nitrocefin): 0.051 ± 0.012 µM

O=C(NCCCCCCCCn1ccc2ccccc21)Oc1ccccc1
IC50 (Fatty-acid amide hydrolase 1 (Faah, Rattus norvegicus, UniProt P97612); rat brain homogenate; 60 min, 37 °C): 0.1 µM

CN(C)CP(=O)(O)O
IC50 (Urease subunit alpha (Sporosarcina pasteurii, UniProt P41020); enzyme activity, inhibitor, indophenol colorimetric; 20 min, pH 7.0, 37 °C, added: 50 mM urea): 49 ± 1.7 µM

N#Cc1cn([C@@H]2O[C@H](CSCC[C@H](N)C(=O)O)[C@@H](O)[C@H]2O)c2ncnc(N)c12
IC50 (Histone-arginine methyltransferase CARM1 (CARM1, Homo sapiens, UniProt Q86X55); enzyme activity, inhibitor, radiometric): 1 µM

Cn1cc(C(=O)Nc2ccccn2)c2ccccc21
IC50 (Genome polyprotein, 3C protease (rhinovirus B14, UniProt P03303); 3C protease activity, SAMDI-MS; human rhinovirus): 2.32 µM

CN(Cc1ccc(C(C)(C)C)cc1)Cc1cccc2ccccc12
IC50 (mRNA cap guanine-N(7) methyltransferase (RNMT, Homo sapiens, UniProt O43148); enzyme activity, inhibitor): 1.28 µM

COc1ccc(CC[C@H]2OC(=O)[C@@H]3CCCCN3C(=O)C(=O)C(C)(C)COC(=O)/C=C\CCN(C)C(=O)[C@H](CC(C)C)N(C)C(=O)[C@H]3CCCN3C(=O)[C@H](Cc3ccccc3)N(C)C(=O)[C@@H](c3ccccc3)NC(=O)CCC(=O)Nc3cccc2c3)cc1OC
IC50 (FKBP1A/SLC29A1 (Homo sapiens, UniProt P62942+Q99808); thymidine uptake, inhibitor; PK-15 expressing hENT1; 30 min, added: [3H]-thymidine): 0.469 µM

CNc1ccc2c(n1)sc1c(N3CCNCC3)nc(NC)nc12
IC50 (uidA; enzyme activity, inhibitor, absorbance; pH 7.5): 0.08 µM

CC(C)C[C@H](NC(=O)/C=C/c1ccc(OP(=O)(O)O)cc1)C(=O)N1CCC[C@H]1C(=O)N[C@@H](CCC(N)=O)[C@H](C)OCc1ccccc1
IC50 (Signal transducer and activator of transcription 3, SH2 domain (STAT3, Homo sapiens, UniProt P40763); inhibitor, fluorescence polarization): 0.272 ± 0.007 µM

COc1ccc(/C=C/C(=O)c2ccc(N3CCNCC3)cc2)cc1
IC50 (Beta-secretase 1 (BACE1, Homo sapiens, UniProt P56817); enzyme activity, inhibitor, fluorescence; with preincubation): 6.72 µM

CC(=O)N[C@H]1CSC(=O)[C@H](Cc2ccccc2)NC(=O)[C@H](CC(C)C)NC(=O)[C@H](CO)NC(=O)[C@H](CO)NC1=O
IC50 (Accessory gene regulator protein C (Staphylococcus aureus, UniProt Q309Z2)): 0.0117 µM

CC(=O)N[C@@H](CCCNC(=O)c1ccc(-c2cc(C(F)(F)F)ccn2)cc1)C(=O)N[C@@H](CCCNC(=O)c1ccc(-c2cc(C(F)(F)F)ccn2)cc1)C(N)=O
IC50 (Dual specificity protein phosphatase 14 (DUSP14, Homo sapiens, UniProt O95147); enzyme activity, inhibitor): 31 µM

CN1CCN(Cc2ccc(NC(=O)c3ccc(C(C)(C)C)c(C#Cc4cnc5cccnn45)c3)cc2C(F)(F)F)CC1
IC50 (Receptor-interacting serine/threonine-protein kinase 3 (RIPK3, Homo sapiens, UniProt Q9Y572); enzyme activity, inhibitor, ADP-Glo kinase; 20 ng enzyme): > 10 µM

COc1cc(-c2nn(C3CCC(N4CCN(C)CC4)CC3)c3ncnc(N)c23)ccc1NC(=O)OCc1ccccc1 (centres unmarked)
IC50 (Serine/threonine-protein kinase PAK 3 (PAK3, Homo sapiens, UniProt O75914); kinase activity, inhibitor; added: ATP 100 µM, MBP substrate): > 20 µM

N=C(N)NC(=O)c1ccc(C(=O)NCCCC[C@H](NC(=O)CNC(=O)CCC(=O)NN=Cc2cc(C=NNC(=O)CCC(=O)NCC(=O)N[C@@H](CCCCNC(=O)c3ccc(C(=O)NC(=N)N)[nH]3)C(=O)N[C@@H](Cc3c[nH]c4ccccc34)C(=O)N[C@@H](CCCCN)C(N)=O)cc(C=NNC(=O)CCC(=O)NCC(=O)N[C@@H](CCCCNC(=O)c3ccc(C(=O)NC(=N)N)[nH]3)C(=O)N[C@@H](Cc3c[nH]c4ccccc34)C(=O)N[C@@H](CCCCN)C(N)=O)c2)C(=O)N[C@@H](Cc2c[nH]c3ccccc23)C(=O)N[C@@H](CCCCN)C(N)=O)[nH]1
IC50 (Tryptase beta-2 (TPSB2, Homo sapiens, UniProt P20231); enzyme activity, low-affinity phase, inhibitor; added: Tos-Gly-Pro-Arg-AMC substrate): 29.9 ± 1.44 µM

CC(C)=C/C=C/[C@@H](C)[C@H]1CC[C@@H]2[C@]1(C)CC[C@H]1[C@]23C=C[C@]2(C[C@@H](O)CC[C@]12C)OO3
IC50 (Cathepsin B (CTSB, Homo sapiens, UniProt P07858); enzyme activity, inhibitor, fluorescence): 8.18 µM

CC(C)(C)c1ccc(C(=O)Nc2cc(Cl)c(Br)cc2C(=O)O)cc1
IC50 (Phosphotransferase (Trypanosoma brucei, UniProt Q38C42); enzyme activity, inhibitor): 0.98 ± 0.07 µM

CC(C)[C@H](NC(=O)c1ccc(CNc2nc3c(c(=O)[nH]2)CCC3)cc1)C(=O)NC1CNC1
IC50 (Matrix metalloproteinase-9 (MMP9, Homo sapiens, UniProt P14780); enzyme activity, inhibitor): > 5 µM

CC(C)C[C@H](NC(=O)[C@@H](NC(=O)[C@@H]1CCCN1C(=O)[C@@H](Cc1ccc(O)cc1)NC(=O)[C@@H](CO)NC(=O)C(C)C(O)CCCCCC(O)Cc1ccccc1)[C@@H](C)O)[C@H](O)CC(=O)N[C@H](CO)Cc1ccc(O)cc1 (some centres unmarked)
IC50 (Cathepsin D (CTSD, Homo sapiens, UniProt P07339); enzyme activity, fluorogenic substrate; 120 min, pH 3.5): 21 µM

C[C@H](CS)C(=O)Nc1cc(-n2nccn2)cc2c1OCO2
IC50 (Metallo-beta-lactamase VIM-2 (VIM-2, Escherichia coli, UniProt Q5U7L7); enzyme activity, inhibitor, fluorescence; with preincubation): 0.0251 µM

C[C@H]1CN(c2nnnc3c2sc2nc(N4CCOCC4)c4c(c23)CCCC4)CCN1
IC50 (uidA; enzyme activity, inhibitor): > 100 µM

O=C(C[P+]([Au-][Cl])(c1ccccc1)c1ccccc1)[O][Ti+2][O]C(=O)C[P+]([Au-][Cl])(c1ccccc1)c1ccccc1.c1cc[cH-]c1.c1cc[cH-]c1
IC50 (MAP kinase-activated protein kinase 2 (MAPKAPK2, Homo sapiens, UniProt P49137); enzyme activity, inhibitor, radiometric): 0.712 µM

CSCC[C@H](NC(=O)[C@H](C)NC(=O)CNC(=O)[C@H](Cc1ccc(O)cc1)NC(=O)[C@H](Cc1c[nH]c2ccccc12)NC(=O)[C@H](Cc1ccccc1)NC(=O)[C@H](CO)NC(=O)CNC(=O)CNC(=O)[C@H](CC(=O)O)NC(=O)[C@H](CCC(=O)O)NC(=O)[C@H](CCC(N)=O)NC(=O)[C@@H]1CCCN1C(=O)[C@H](CCCNC(=N)N)NC(=O)[C@H](CCCNC(=N)N)NC(=O)[C@H](CCCNC(=N)N)NC(=O)[C@H](CCC(N)=O)NC(=O)[C@H](CCCNC(=N)N)NC(=O)[C@H](CCCNC(=N)N)NC(=O)[C@H](CCCCN)NC(=O)[C@H](CCCCN)NC(=O)[C@H](CCCNC(=N)N)NC(=O)CN)C(=O)N[C@@H](CCCCN)C(=O)N[C@@H](C)C(=O)N[C@@H](CC(C)C)C(=O)N[C@@H](Cc1ccc(O)cc1)C(=O)NCC(N)=O
IC50 (Calcium and integrin-binding protein 1 (CIB1, Homo sapiens, UniProt Q99828); peptide binding, inhibitor, TR-FRET competition): 0.192 µM

CCCOc1ccc2ccccc2c1/C=C/c1nc(O)c([N+](=O)[O-])c(=O)[nH]1
IC50 (Prostatic acid phosphatase (ACP3, Homo sapiens, UniProt P15309); enzyme activity, inhibitor): 6.7 µM

CC[C@H](C)[C@H](NC(=O)CNC(=O)CNCCOC)C(=O)N[C@@H](CO)C(=O)N[C@@H](CCC(N)=O)C(=O)N[C@H](C(=O)N[C@@H](CC(N)=O)C(=O)N[C@@H](CCC(=O)O)C(=O)N[C@@H](CCCCN)C(=O)N[C@H](C(=O)N[C@@H](CC(N)=O)C(=O)N[C@@H](CCC(N)=O)C(=O)N[C@@H](CO)C(=O)N[C@@H](CC(C)C)C(=O)N[C@@H](C)C(=O)N[C@@H](Cc1ccccc1)C(=O)N[C@H](C(=O)N[C@@H](CCCNC(=N)N)C(=O)N[C@@H](CCCCN)C(=O)N[C@@H](CO)C(=O)N[C@@H](CC(=O)O)C(=O)N[C@@H](CCC(=O)O)C(=O)O)[C@@H](C)CC)[C@@H](C)CC)C(C)C
IC50 (hRSV fusion protein 5-helix bundle; binding, fluorescence polarization; added: Fl-C35 tracer 5 nM): 81 ± 2 µM

O=C(O[C@@H]1Cc2c(O)cc(O)cc2O[C@H]1c1cc(O)c(O)c(O)c1)c1cc(O)c(O)c(O)c1
IC50 (mRNA cap guanine-N(7) methyltransferase, with RAM (RNMT, Homo sapiens, UniProt O43148); N7-methyltransferase activity, inhibitor, Py-FLINT; RNMT-RAM complex, added: SAM 20 µM): 2.74 ± 0.54 µM

CC1C(=NNC(=O)c2ccncc2)C(C)C(c2ccc(Cl)cc2)OC1c1ccc(Cl)cc1 (centres unmarked)
IC50 (gyrB; ATPase activity, inhibitor): 4.76 µM

COc1ccc2nc(C)cc(OCC(=O)Nc3cc(C)cc(C)c3)c2c1
IC50 (Cytochrome P450 3A4 (CYP3A4, Homo sapiens, UniProt P08684); enzyme activity, inhibitor; added: VR substrate): 16 µM

O=C(O)CNCC(=O)O
IC50 (IMP-28 metallo-beta-lactamase; enzyme activity, inhibitor, FC5 fluorescent substrate; 60 pM enzyme, 1 µM ZnSO4): > 200 µM

O=C(NCCN1CCC2(CC1)C(=O)NCN2Cc1ccncc1)c1ccc2ccccc2c1
IC50 (Phospholipase D1 (Homo sapiens, UniProt Q13393); enzyme activity, inhibitor): 24 µM
